Assay results of several laboratories.
Each line is one published result; not all experiments were run side by side. Values joined by “and” are separate records of one study, mostly repeats; a detail may differ.
Target: Glucocorticoid receptor (NR3C1, Homo sapiens, UniProt P04150)

Compound | test | test system | setting | scale | quantity | result
O=C(O)c1ccc(-c2nc(-c3ccccc3Cl)c3sccn23)cc1 | radioligand binding, safety screen panel | – | 10 µM | baseline: control | specific binding | 96.1% and 94%
Cc1cc(Nc2nc(C[C@@]3(C(=O)O)CCN(Cc4cccc(Cl)c4F)[C@H](C)C3)cc(C)c2F)[nH]n1 | agonist | – | 10 µM | – | activation | -3.65%
CCc1nnc(-c2c(OC)cc(-c3cnc4cc(-c5cnn(C)c5)ccn34)cc2OC)o1 | agonist radioligand, radioligand binding | – | 10 µM, SafetyScreen44 GR mean | lower = stronger displacement | remaining binding | 103%
CN[C@@H]1[C@H](O)[C@H](NC)[C@H]2O[C@]3(O)[C@H](O[C@@H]2[C@H]1O)O[C@H](C)C[C@H]3NC(=O)Cc1cc(Cl)ccn1 | ligand displacement, radioligand | – | 10 µM | – | inhibition | -13%
Cc1ccc2c(n1)c(-c1cccc(S(C)(=O)=O)c1)c(C)n2C/C(F)=C/CN | ligand displacement, radioligand | – | 10 µM | – | inhibition | 9%
C[C@H](NCc1ccc(-c2ccc(C(F)(F)F)cc2)cc1)C(N)=O | radioligand binding, SafetyScreen panel | – | 1 µM, with: 5.0 nM [3H]Dexamethasone | – | inhibition | 7%
COc1ccc(F)cc1S(=O)(=O)Nc1cnc2c(c1)C(=O)NCCO2 | ligand displacement, radioligand | – | 10 µM | – | inhibition | -6%
CCN(CC)CCOc1ccc(-c2nnn(Cc3ccc(OC)cc3)c2N)cc1 | radioligand binding | IM-9 | 10 µM, with: 10000 nM radioligand | – | inhibition | 2.68%
CCOC(=O)[C@](CC)(CCCSCCOCCOCCNC(=O)c1ccc(-c2c3ccc(=N)c(S(=O)(=O)O)c-3oc3c(S(=O)(=O)O)c(N)ccc23)c(C(=O)O)c1)NC(=O)c1ccc(C2CC2)c(Cc2ccc(F)cc2)n1 | ligand displacement, radioligand | – | 10 µM | – | inhibition | 33%
N[C@H](C(=O)N1CCCC1)C1CCN(c2nccc3c(-c4ncc(Cl)cc4Cl)cccc23)CC1 | ligand displacement, radioligand | – | 10 µM | – | inhibition | -8%
CS(C)(=O)=Nc1ccc(-c2ccc(-c3nc4cc(O[C@@H]5CO[C@H]6[C@@H]5OC[C@H]6O)[nH]c4cc3F)cc2)cc1 | ligand displacement, radioligand | – | 10 µM | – | inhibition | 22%
C/C(=N\OCCCN1CCCCC1)c1ccc(C(F)(F)F)cc1 | reporter gene, antagonist, luciferase reporter | – | 10 µM | – | inhibition | -4.98%

For quick reference, copied from above:
Compound | test | test system | setting | scale | quantity | result
C/C(=N\OCCCN1CCCCC1)c1ccc(C(F)(F)F)cc1 | reporter gene, antagonist, luciferase reporter | – | 10 µM | – | inhibition | -4.98%
CCc1nnc(-c2c(OC)cc(-c3cnc4cc(-c5cnn(C)c5)ccn34)cc2OC)o1 | agonist radioligand, radioligand binding | – | 10 µM, SafetyScreen44 GR mean | lower = stronger displacement | remaining binding | 103%
